Published values from different studies.
Compare with care: the assays were run in different laboratories. Numbers after ± are the reported error.

Cc1ccc(CCC(=O)Nc2nnc(S(N)(=O)=O)s2)cc1  unbound plasma concentration (BALB/c mouse, male, plasma; oral, 20 mg/kg, 6 h): 0.016 ng/mL
Cc1c(C(=O)O)ccc2c3n(nc12)[C@@H]1[C@H](C3)N(CC2CC2)[C@@]2(C(=O)Nc3cc(Cl)ccc32)[C@H]1c1cccc(Cl)c1F  unbound fraction (equilibrium dialysis; BomTac:NMRI-Foxn1nu mouse, female, plasma; pH 7.4): 0.004
CN1CCN(C(=O)[C@H](CCCN[C@@H]2C[C@H]2c2ccc(F)cc2)NC(=O)c2ccc(-n3ccnn3)cc2)CC1  unbound plasma concentration (NOD/SCID mouse MV4-11 xenograft, plasma; oral, 15 mg/kg/day, 24 h): 2.9 ng/mL
COc1cc2c(Nc3ccc(Cl)c(Cl)c3F)ncnc2cc1OC[C@@H]1C[C@@H]2CN(C)C[C@@H]2C1  unbound brain concentration (FVB wild-type mouse; oral, 70 mg/kg, 2 h): 0.78 ng/g
CCn1ncc2c1-c1cnc(N)c(c1)O[C@H](C)c1cc(F)ccc1-c1nn(C)nc1C2  unbound plasma concentration (female Balb/c nude mouse; 3 mg/kg twice daily, 1 h, steady state): 275 ± 32 nM
NS(=O)(=O)c1nnc(NC(=O)C2CCCC3(CCCCC3)C2)s1 (stereo not drawn)  unbound fraction (mouse, plasma): 0.12
C=CC(=O)N1CC2(CCN(c3nc4c(c(-c5cc(O)cc6ccccc56)c3C#N)C[C@H]3C[C@@H]4C3(C)C)C2)C1  unbound AUC (mouse, plasma; oral, 5 mg/kg): 1 nM·h
C[C@@H](N)COc1ccc(-c2cnc3ccc(N[C@H](C)c4cccc(F)c4)nn23)cc1  unbound brain concentration (female Balb/c nude mouse; 100 mg/kg once daily, 1 h, steady state): 28 ± 2 nM
CCn1ncc2c1-c1cnc(N)c(c1)O[C@H](C)c1cc(F)ccc1-c1nn(C)nc1C2  unbound concentration (Balb/c nude mouse, female, PDX, plasma; po, 0.04 mg/kg BID, 1 h, 5 days dosing): 4.4 ± 0.3 nM

Excerpt of the above:
CCn1ncc2c1-c1cnc(N)c(c1)O[C@H](C)c1cc(F)ccc1-c1nn(C)nc1C2  unbound plasma concentration (female Balb/c nude mouse; 3 mg/kg twice daily, 1 h, steady state): 275 ± 32 nM
